Measured values from different studies.
Parts stem from different laboratories: compare values within a part only.
UniProt Q02156, sequence (whole entry, looked up): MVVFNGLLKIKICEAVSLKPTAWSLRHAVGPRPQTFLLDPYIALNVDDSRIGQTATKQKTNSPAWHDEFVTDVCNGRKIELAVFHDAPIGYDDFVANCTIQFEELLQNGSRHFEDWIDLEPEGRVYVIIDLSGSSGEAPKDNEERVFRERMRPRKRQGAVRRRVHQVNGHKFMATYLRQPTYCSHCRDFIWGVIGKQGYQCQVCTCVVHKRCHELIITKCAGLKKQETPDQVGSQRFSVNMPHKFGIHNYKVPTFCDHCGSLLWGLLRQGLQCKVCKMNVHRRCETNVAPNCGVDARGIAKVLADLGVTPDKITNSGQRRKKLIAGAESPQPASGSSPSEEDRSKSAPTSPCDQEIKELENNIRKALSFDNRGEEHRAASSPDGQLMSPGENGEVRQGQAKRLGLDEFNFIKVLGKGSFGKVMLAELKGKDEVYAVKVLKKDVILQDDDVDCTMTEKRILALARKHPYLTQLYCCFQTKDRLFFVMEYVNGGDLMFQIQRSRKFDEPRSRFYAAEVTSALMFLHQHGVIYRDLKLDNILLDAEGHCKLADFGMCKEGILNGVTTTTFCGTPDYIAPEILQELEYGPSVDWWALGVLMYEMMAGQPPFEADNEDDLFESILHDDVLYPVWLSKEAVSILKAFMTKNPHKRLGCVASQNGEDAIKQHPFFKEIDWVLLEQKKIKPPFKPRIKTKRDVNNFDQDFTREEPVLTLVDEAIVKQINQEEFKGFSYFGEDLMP
UniProt O14976, sequence (whole entry, looked up): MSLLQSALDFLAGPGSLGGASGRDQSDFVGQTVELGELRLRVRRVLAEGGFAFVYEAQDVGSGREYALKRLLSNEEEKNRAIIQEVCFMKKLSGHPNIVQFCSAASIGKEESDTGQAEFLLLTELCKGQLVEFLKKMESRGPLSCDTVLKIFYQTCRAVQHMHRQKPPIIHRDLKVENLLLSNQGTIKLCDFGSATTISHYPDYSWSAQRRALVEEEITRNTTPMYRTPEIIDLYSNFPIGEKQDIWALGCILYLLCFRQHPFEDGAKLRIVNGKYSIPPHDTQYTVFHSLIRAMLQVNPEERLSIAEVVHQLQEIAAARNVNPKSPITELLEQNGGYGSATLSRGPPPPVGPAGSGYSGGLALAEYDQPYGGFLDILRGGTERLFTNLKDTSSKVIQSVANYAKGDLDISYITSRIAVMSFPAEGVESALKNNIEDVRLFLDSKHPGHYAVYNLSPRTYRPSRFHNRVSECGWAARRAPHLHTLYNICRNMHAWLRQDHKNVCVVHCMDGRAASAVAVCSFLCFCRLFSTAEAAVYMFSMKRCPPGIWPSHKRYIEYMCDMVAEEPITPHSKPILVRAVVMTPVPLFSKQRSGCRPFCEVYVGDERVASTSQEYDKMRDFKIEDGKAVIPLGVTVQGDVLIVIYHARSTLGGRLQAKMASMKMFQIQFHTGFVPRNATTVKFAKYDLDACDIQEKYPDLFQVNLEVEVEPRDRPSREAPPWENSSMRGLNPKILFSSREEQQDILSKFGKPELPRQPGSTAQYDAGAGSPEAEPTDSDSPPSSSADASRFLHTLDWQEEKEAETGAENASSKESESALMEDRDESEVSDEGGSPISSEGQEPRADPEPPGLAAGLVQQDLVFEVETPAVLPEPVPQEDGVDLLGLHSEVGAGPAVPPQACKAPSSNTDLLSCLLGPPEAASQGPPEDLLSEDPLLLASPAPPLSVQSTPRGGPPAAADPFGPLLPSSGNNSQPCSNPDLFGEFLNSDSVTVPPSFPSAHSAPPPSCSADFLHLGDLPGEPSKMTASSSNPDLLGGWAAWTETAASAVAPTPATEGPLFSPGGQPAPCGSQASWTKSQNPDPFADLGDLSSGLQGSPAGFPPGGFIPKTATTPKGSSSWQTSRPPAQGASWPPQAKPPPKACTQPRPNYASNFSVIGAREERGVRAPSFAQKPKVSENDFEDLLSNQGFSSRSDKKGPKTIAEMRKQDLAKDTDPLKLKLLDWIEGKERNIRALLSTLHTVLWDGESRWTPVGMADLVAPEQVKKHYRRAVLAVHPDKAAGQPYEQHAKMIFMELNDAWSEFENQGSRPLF
UniProt Q8TD08, sequence (whole entry, looked up): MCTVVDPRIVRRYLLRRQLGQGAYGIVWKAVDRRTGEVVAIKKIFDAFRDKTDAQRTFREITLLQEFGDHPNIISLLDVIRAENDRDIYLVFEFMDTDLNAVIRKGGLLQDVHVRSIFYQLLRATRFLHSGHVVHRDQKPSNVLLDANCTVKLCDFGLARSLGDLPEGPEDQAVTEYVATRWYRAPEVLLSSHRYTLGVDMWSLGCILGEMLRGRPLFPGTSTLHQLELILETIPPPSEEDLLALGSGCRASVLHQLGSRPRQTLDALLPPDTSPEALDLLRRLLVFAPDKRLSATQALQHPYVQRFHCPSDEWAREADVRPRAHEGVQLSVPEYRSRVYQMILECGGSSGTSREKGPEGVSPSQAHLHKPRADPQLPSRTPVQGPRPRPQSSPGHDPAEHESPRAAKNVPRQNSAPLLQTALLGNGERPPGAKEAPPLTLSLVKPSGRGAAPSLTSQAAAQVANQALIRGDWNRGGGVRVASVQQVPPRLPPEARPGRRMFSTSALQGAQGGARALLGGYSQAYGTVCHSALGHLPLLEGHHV
UniProt Q96SB4, sequence (whole entry, looked up): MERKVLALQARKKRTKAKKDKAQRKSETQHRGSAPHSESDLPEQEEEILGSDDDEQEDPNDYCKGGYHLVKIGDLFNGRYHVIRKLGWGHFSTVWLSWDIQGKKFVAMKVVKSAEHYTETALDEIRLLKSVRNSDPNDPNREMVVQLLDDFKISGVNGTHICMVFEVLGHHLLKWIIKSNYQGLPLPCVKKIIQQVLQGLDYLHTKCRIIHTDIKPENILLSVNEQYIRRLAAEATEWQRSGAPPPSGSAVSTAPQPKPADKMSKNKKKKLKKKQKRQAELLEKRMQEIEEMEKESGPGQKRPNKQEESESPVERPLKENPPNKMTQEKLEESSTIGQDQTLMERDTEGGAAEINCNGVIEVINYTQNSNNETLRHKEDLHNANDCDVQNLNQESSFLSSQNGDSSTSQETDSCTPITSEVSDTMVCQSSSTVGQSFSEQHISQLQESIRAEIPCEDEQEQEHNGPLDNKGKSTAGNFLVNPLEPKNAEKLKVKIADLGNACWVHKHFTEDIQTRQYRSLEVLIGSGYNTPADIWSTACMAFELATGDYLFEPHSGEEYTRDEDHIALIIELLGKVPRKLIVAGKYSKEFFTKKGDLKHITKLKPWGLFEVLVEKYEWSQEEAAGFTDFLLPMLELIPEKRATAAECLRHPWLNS
UniProt P29323, sequence (whole entry, looked up): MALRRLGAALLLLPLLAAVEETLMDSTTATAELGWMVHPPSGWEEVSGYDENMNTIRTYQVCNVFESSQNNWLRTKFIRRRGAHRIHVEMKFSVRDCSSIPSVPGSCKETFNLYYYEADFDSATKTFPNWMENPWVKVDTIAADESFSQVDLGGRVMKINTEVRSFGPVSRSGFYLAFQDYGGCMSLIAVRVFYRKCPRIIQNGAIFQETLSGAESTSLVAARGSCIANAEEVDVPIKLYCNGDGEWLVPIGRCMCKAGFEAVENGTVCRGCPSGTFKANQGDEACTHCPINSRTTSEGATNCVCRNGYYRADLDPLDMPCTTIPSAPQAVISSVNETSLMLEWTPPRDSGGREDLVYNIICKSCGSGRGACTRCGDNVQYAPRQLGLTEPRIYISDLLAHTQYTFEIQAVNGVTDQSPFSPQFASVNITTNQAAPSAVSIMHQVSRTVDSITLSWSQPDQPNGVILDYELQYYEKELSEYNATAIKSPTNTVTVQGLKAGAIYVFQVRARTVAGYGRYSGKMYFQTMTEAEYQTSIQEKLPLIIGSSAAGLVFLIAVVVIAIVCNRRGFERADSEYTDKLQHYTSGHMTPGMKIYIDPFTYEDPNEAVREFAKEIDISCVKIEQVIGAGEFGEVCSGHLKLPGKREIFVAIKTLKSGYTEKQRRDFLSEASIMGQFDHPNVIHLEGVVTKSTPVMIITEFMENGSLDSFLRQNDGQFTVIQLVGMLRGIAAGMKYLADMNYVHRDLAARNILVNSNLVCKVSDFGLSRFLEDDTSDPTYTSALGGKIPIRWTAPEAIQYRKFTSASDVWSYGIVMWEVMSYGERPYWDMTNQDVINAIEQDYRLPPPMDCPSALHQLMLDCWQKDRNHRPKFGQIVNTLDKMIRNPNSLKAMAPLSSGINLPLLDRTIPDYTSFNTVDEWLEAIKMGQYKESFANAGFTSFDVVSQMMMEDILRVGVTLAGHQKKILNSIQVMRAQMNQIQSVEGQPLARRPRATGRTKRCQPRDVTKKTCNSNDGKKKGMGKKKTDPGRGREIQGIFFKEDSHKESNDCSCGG

Sample 1
Target: Calcium/calmodulin-dependent protein kinase type II subunit alpha (CAMK2A, Homo sapiens, UniProt Q9UQM7)
UniProt Q9UQM7, sequence (whole entry, looked up): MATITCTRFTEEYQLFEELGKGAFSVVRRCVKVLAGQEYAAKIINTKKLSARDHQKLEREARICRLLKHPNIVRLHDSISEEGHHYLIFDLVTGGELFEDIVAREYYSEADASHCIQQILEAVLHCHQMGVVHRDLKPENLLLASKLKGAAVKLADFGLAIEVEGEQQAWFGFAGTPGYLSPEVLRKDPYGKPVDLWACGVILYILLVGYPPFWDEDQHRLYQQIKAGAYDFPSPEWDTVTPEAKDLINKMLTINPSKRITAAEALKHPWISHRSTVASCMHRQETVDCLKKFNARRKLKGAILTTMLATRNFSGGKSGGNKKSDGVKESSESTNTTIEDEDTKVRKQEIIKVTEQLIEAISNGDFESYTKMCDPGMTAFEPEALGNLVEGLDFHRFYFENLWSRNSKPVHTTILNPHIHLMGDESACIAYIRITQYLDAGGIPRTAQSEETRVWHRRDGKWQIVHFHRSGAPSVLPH
Read-out: enzyme activity
Mode: inhibitor
Concentration: 10 µM
Quantity: inhibition
CC1=C(C(=O)OCCN(Cc2ccccc2)c2ccccc2)C(c2cccc([N+](=O)[O-])c2)C(P2(=O)OCC(C)(C)CO2)=C(C)N1 (stereo not shown): -4%
CCOC(=O)N1CCC(=C2c3ccc(Cl)cc3CCc3cccnc32)CC1: -2%
O=C(O[C@@H]1Cc2c(O)cc(O)cc2O[C@@H]1c1cc(O)c(O)c(O)c1)c1cc(O)c(O)c(O)c1: -46%
O=C(O)c1ccccc1: -5%
NC[C@H]1O[C@H](O[C@H]2[C@H](O)[C@@H](O[C@H]3O[C@H](CO)[C@@H](O)[C@H](N)[C@H]3O)[C@H](N)C[C@@H]2N)[C@H](N)C[C@@H]1O: 13%
CSc1nc2cc(Cl)c(Oc3cccc(Cl)c3Cl)cc2[nH]1: -6%

Sample 2
SMILES: CS(=O)(=O)c1cc(C2(NC(=O)c3cncc4c3cnn4-c3ccc(F)cc3)CC2)ccn1
Read-out: cell-free assay
Method: competition with immobilised ligand
Concentration: 1 µM
Quantity: remaining binding
Cyclin-G-associated kinase (GAK, Homo sapiens, UniProt O14976): 85%
Dual specificity mitogen-activated protein kinase kinase 2 (MAP2K2, Homo sapiens, UniProt P36507): 80%
Ephrin type-B receptor 2 (EPHB2, Homo sapiens, UniProt P29323): 100%
Phosphatidylinositol 4-kinase beta (PI4KB, Homo sapiens, UniProt Q9UBF8): 96%
Mitogen-activated protein kinase kinase kinase 5 (MAP3K5, Homo sapiens, UniProt Q99683): 97%
Protein kinase C epsilon type (PRKCE, Homo sapiens, UniProt Q02156): 100%
Phosphatidylinositol 4,5-bisphosphate 3-kinase catalytic subunit alpha isoform (PIK3CA, Homo sapiens, UniProt P42336, C420R): 83%
Ankyrin repeat and protein kinase domain-containing protein 1 (ANKK1, Homo sapiens, UniProt Q8NFD2): 96%
Tyrosine-protein kinase ABL1, non-phosphorylated (ABL1, Homo sapiens, UniProt P00519, T315I): 75%
Serine/threonine-protein kinase 33 (STK33, Homo sapiens, UniProt Q9BYT3): 90%
NT-3 growth factor receptor (NTRK3, Homo sapiens, UniProt Q16288): 90%
Serine/threonine-protein kinase DCLK3 (DCLK3, Homo sapiens, UniProt Q9C098): 100%
STE20/SPS1-related proline-alanine-rich protein kinase (STK39, Homo sapiens, UniProt Q9UEW8): 58%
Serine/threonine-protein kinase ULK3 (ULK3, Homo sapiens, UniProt Q6PHR2): 100%
Mitogen-activated protein kinase kinase kinase 12 (MAP3K12, Homo sapiens, UniProt Q12852): 100%
Serine/threonine-protein kinase Nek10 (NEK10, Homo sapiens, UniProt Q6ZWH5): 97%
Calcium/calmodulin-dependent protein kinase type II subunit beta (CAMK2B, Homo sapiens, UniProt Q13554): 100%
Receptor-interacting serine/threonine-protein kinase 2 (RIPK2, Homo sapiens, UniProt O43353): 53%
cGMP-dependent protein kinase 2 (PRKG2, Homo sapiens, UniProt Q13237): 89%
Serine/threonine-protein kinase TAO2 (TAOK2, Homo sapiens, UniProt Q9UL54): 97%

Sample 3
Host: mouse
Matrix: microsomes or S9
Concentration: 2 µM
Time: 0.5 h
Quantity: remaining compound
O=c1[nH]ccn2nc(-c3ccc(F)cc3)c(CO)c12: 23.7%
COc1cc(C(=O)N2CCN(C)CC2)c(N(C)S(C)(=O)=O)cc1OC: > 100%
COc1ccccc1CC(=O)c1ccc(O)c(O)c1O: 16.2%
CN/C(=N/c1cc(C)nn1-c1ccccc1)c1ccc(F)cc1: 4.05%
O=C(O)CCCCC/N=C1\CCc2ccccc2N1: > 99.9%
COc1ccccc1C(CC(=O)NCCN(C)C)C(C)C (stereo not shown): 0.15%
COCC(=O)Cc1nc(N)nc(Nc2ccc(C)cc2)n1: 18.5%
CNC1=C(c2cccc(C)n2)C(=O)C(c2ccc(Cl)cc2Cl)O1 (stereo not shown): 0.23%

Sample 4
SMILES: Cc1nc(Nc2ncc(C(=O)Nc3c(C)cccc3Cl)s2)cc(N2CCN(CCO)CC2)n1
Mode: inhibitor
Quantity: inhibition
SRSF protein kinase 1 (SRPK1, Homo sapiens, UniProt Q96SB4); 10 µM: < 50%
Casein kinase II subunit alpha' (CSNK2A2, Homo sapiens, UniProt P19784); 10 µM: < 50%
Serine/threonine-protein kinase pim-1 (PIM1, Homo sapiens, UniProt P11309); 1 µM: < 50%
TGF-beta receptor type-2 (TGFBR2, Homo sapiens, UniProt P37173); 10 µM: 84%
Rho-associated protein kinase 1 (ROCK1, Homo sapiens, UniProt Q13464); 1 µM: < 50%
Atypical kinase COQ8B, mitochondrial (COQ8B, Homo sapiens, UniProt Q96D53); 10 µM: < 50%
Cyclin-dependent kinase 3 (CDK3, Homo sapiens, UniProt Q00526); 10 µM: < 50%
Mitogen-activated protein kinase 15 (MAPK15, Homo sapiens, UniProt Q8TD08); 10 µM: < 50%
Bone morphogenetic protein receptor type-1B (BMPR1B, Homo sapiens, UniProt O00238); 10 µM: 84%

For quick reference, copied from above (sample 4):
Casein kinase II subunit alpha' (CSNK2A2, Homo sapiens, UniProt P19784); 10 µM: < 50%
Serine/threonine-protein kinase pim-1 (PIM1, Homo sapiens, UniProt P11309); 1 µM: < 50%
TGF-beta receptor type-2 (TGFBR2, Homo sapiens, UniProt P37173); 10 µM: 84%
Rho-associated protein kinase 1 (ROCK1, Homo sapiens, UniProt Q13464); 1 µM: < 50%
Atypical kinase COQ8B, mitochondrial (COQ8B, Homo sapiens, UniProt Q96D53); 10 µM: < 50%
Cyclin-dependent kinase 3 (CDK3, Homo sapiens, UniProt Q00526); 10 µM: < 50%
Mitogen-activated protein kinase 15 (MAPK15, Homo sapiens, UniProt Q8TD08); 10 µM: < 50%
